Measured values pooled from the literature.
Numbered parts are unrelated; each lists some results of a single study.

Block 1 — species: mouse; medium: microsomes or S9; tested at: 2 µM; time: 0.5 h
| Structure (SMILES) | remaining compound [%] |
| --- | --- |
| Cc1nn(CC(=O)O)c2nccc(-c3cnn(C)c3)c12 | 73.4 |
| CCOC(=O)c1ccc(NC(=O)c2ccc(-n3nncc3C)cc2)cc1 | 0.382 |
| Cc1c(C#N)c2ccccc2n1Cc1nc(CCc2ccccc2)n[nH]1 | 0.599 |
| CCCn1nccc1-c1csc(S(=O)(=O)NC(C)(C)CC)c1 | 0.0192 |
| CC1=CCC(c2nnco2)C(c2ccc(F)cc2)C1 (centres unmarked) | 22 |
| CN(C)S(=O)(=O)c1ccc(Br)c2ccccc12 | 25 |
| CCOc1cc(=O)n2c(c1C(=O)NCc1cccc(F)c1)CCCCC2 | 12.5 |
| Cc1nn(CC(C)C)c2sc(C(=O)N3CCN(CC(=O)NC4CC4)CC3)cc12 | 12.7 |
| CCN1CCN(C(=O)c2ccc3c(c2)N(Cc2cccc(Cl)c2)C(=O)c2ccccc2[S+]3[O-])CC1 (centres unmarked) | 0.493 |
| Cc1cc(N2CCCC2c2cc(C)on2)nc(N)n1 (centres unmarked) | 53.1 |
| Cc1ccccc1S(=O)(=O)Nc1ccc2nc(N3CCN(CC(=O)NC(C)(C)C)CC3)cc(C(=O)O)c2c1 | 86.1 |
| O=c1c2c3nc4ccccc4nc3n(C3CCCC3)c2ncn1Cc1ccco1 | 38.6 |
| Clc1nnc(Cl)c2c1ncn2Cc1ccccc1 | 90.7 |

Block 2 — cell line: A-375; tested at: 100 µM; time: 36 h
| SMILES | viability [%] |
| --- | --- |
| CCN1CCCC1CNC(=O)c1cc(S(=O)(=O)CC)c(N)cc1OC (centres unmarked) | 95 |
| NC(=O)Cc1cccc(C(=O)c2ccccc2)c1N | 81 |
| Nc1ccccc1S(N)(=O)=O | 111 |
| CC1=C(C(=O)O)N2C(=O)[C@@H](NC(=O)[C@H](N)C3=CCC=CC3)[C@H]2SC1 | 114 |
| Clc1ccc(C(Cn2ccnc2)OCc2ccc(Sc3ccccc3)cc2)c(Cl)c1 (centres unmarked) | 3.46 |
| CCOc1ccc2ccccc2c1C(=O)N[C@@H]1C(=O)N2[C@@H]1SC(C)(C)[C@@H]2C(=O)O | 94.8 |
| C[C@@H](O)[C@H]1C(=O)N2C(C(=O)O)=C(SCCN=CN)C[C@H]12 | 95.1 |
| CC(=O)CCCCn1c(=O)c2c(ncn2C)n(C)c1=O | 111 |
| NS(=O)(=O)c1cc2c(cc1Cl)N=CNS2(=O)=O | 111 |
| CC(C)NCC(O)COc1ccc(CCOCC2CC2)cc1 (centres unmarked) | 111 |
| CCOC(=O)c1c(CSc2ccccc2)n(C)c2cc(Br)c(O)c(CN(C)C)c12 | -2.49 |
| CCN1CCN(Cc2ccc(Nc3ncc(F)c(-c4cc(F)c5nc(C)n(C(C)C)c5c4)n3)nc2)CC1 | 104 |
| CCN[C@H]1CN(CCCOC)S(=O)(=O)c2sc(S(N)(=O)=O)cc21 | 108 |
| O=C(CO)[C@@H](O)[C@H](O)[C@H](O)CO | 90.6 |
| CC(=O)OCC(=O)[C@@]12OC3(CCCC3)O[C@@H]1C[C@H]1[C@@H]3CCC4=CC(=O)C=C[C@]4(C)[C@@]3(F)[C@@H](O)C[C@@]12C | 28.6 |

Block 3 — technique: CellTiter-Glo; tested at: 1 µM; notes: mean of five organoid lines; relative to: DMSO
Cell line: normal adjacent epithelium patient-derived organoids
| SMILES | viability |
| --- | --- |
| Cc1c(N2CCCC2)nc2ccc(Br)cc2c1C(=O)NC[C@H](CCC(=O)O)c1ccccc1Cl | 107% |
| CN(C(=O)c1ccccc1)c1cc(N(C)c2ccc3c(c2)CCc2ccc(C(=O)NCCN4CCOCC4)cc2C3=O)ccc1F | 109% |
| Cn1nc(C(=O)NCc2ccc(C(=O)O)cc2)cc1-c1ccc2[nH]ccc2c1 | 106% |
| Cc1cc(NC(=O)c2cccc(S(F)(F)(F)(F)F)c2)cc(-n2ccn3nc(-c4cccnc4)cc23)c1 | 95.1% |
| Cc1c(NC(=O)c2ccc(C(C)(C)C)cc2)cccc1-c1cn(C)c(=O)c(Nc2ccc(C(=O)N3CCOCC3)cc2)n1 | 108% |
| CC(=O)Nc1c(F)cc(C(=O)N[C@H]2CC[C@H](O)CC2)cc1O[C@@H](C)c1ccccc1 | 91.8% |
| CC(=O)Nc1c(C(C)=O)c(=O)n(C)c2nc(-c3ccc(Cl)cc3Cl)c(-c3ccc(Cl)cc3)cc12 | 104% |
| Cn1c(-c2csc(C3CCN(Cc4nc5ncccc5[nH]4)CC3)n2)nc2ccccc21 | 106% |
| Cc1cnc(-c2cc(Cl)ccc2F)cc1-n1c(=O)n(CC(N)=O)c2cnccc21 | 118% |
| Cc1c(Oc2ccc(F)cc2)c(OC(C)C)nn1-c1ccc(C2CC2)cn1 | 118% |
| CC(=O)C1=C(C)N(c2cccc(C(F)(F)F)c2)C(=O)N[C@H]1c1ccc(C#N)nc1 | 108% |
| NS(=O)(=O)c1cc(NC(=O)C2(c3ccccc3Cl)CC2)ccc1Oc1cccc(Cl)c1 | 102% |
| O=C(NCCN1CCOCC1)c1ccc2c(c1)C(=O)c1ccc(Nc3ccc(F)c(NC(=O)c4ccccc4)c3)cc1CC2 | 85% |
| CCc1ccccc1C(=O)Nc1n[nH]c2c(C)c(F)c(C3C(C#N)=C(C)N(C)C(C)=C3C#N)cc12 | 82.5% |

Block 4 — read-out: enzyme activity; mode: inhibitor; tested at: 0.5 µM; relative to: control
Target: Receptor tyrosine-protein kinase erbB-2 (ERBB2, Homo sapiens, UniProt P04626)
| SMILES | remaining activity [%] |
| --- | --- |
| O=C1Cc2c([nH]c3ccc([N+](=O)[O-])cc23)-c2ccccc2N1 | 94.8 |
| CC[n+]1c(/C=C/N(C)c2ccccc2)n(-c2ccccc2)c2ccc(-c3nc4ccccc4s3)cc21 | 92 |
| CCCC(=O)Oc1ccc2[nH]c(C(=O)c3cc4ccccc4[nH]3)cc2c1 | 85.9 |
| CC(=O)c1ccc(N2CCOCC2)cc1O | 98.2 |
| N#CC(=C(N)Sc1ccc(N)cc1)c1ccccc1C(F)(F)F | 93 |
| Oc1ccc(Nc2nc(-c3ccc(Cl)cc3)cs2)cc1 | 96.9 |
| CSc1nc(-c2ccnc(N[C@@H](C)c3ccccc3)c2)c(-c2ccc(F)cc2)[nH]1 (racemic) | 99.2 |
| CC(C)(C)n1nc(Cc2cccc3ccccc23)c2c(N)ncnc21 | 109 |
| Cc1cncc2cccc(S(=O)(=O)N3CCCN(C(=O)CN)C[C@@H]3C)c12 | 99.7 |
| O=S(=O)(NCCNC/C=C/c1ccc(Br)cc1)c1cccc2cnccc12 | 119 |
| Cc1ccc(NC2=CC(=O)c3sc(C)nc3C2=O)cc1 | 94.2 |
| COc1ccc(S(=O)(=O)N(CCO)c2ccccc2CN(C)CC=Cc2ccc(Cl)cc2)cc1 | 97.8 |
| Fc1ccc(-c2nc3n(c2-c2ccncc2)CCS3)cc1 | 105 |
| CCc1[nH]c(-c2ccc(OC)cc2)nc1-c1ccncc1 | 98.9 |
| Nc1nccc(-c2c(-c3ccc(F)cc3)ncn2C2CCNCC2)n1 | 93.7 |
| Cc1cc(Nc2nc(-c3ccccc3)nc3ccccc23)n[nH]1 | 108 |
| O=C1NC(=O)C(c2c[nH]c3ccccc23)=C1c1c[nH]c2ccccc12 | 94.3 |

Repeated from above (block 3):
| SMILES | viability |
| --- | --- |
| CC(=O)Nc1c(F)cc(C(=O)N[C@H]2CC[C@H](O)CC2)cc1O[C@@H](C)c1ccccc1 | 91.8% |
| NS(=O)(=O)c1cc(NC(=O)C2(c3ccccc3Cl)CC2)ccc1Oc1cccc(Cl)c1 | 102% |
| Cc1cc(NC(=O)c2cccc(S(F)(F)(F)(F)F)c2)cc(-n2ccn3nc(-c4cccnc4)cc23)c1 | 95.1% |
| Cc1c(Oc2ccc(F)cc2)c(OC(C)C)nn1-c1ccc(C2CC2)cn1 | 118% |
| Cn1nc(C(=O)NCc2ccc(C(=O)O)cc2)cc1-c1ccc2[nH]ccc2c1 | 106% |
| Cn1c(-c2csc(C3CCN(Cc4nc5ncccc5[nH]4)CC3)n2)nc2ccccc21 | 106% |
| Cc1c(NC(=O)c2ccc(C(C)(C)C)cc2)cccc1-c1cn(C)c(=O)c(Nc2ccc(C(=O)N3CCOCC3)cc2)n1 | 108% |
| Cc1c(N2CCCC2)nc2ccc(Br)cc2c1C(=O)NC[C@H](CCC(=O)O)c1ccccc1Cl | 107% |
| O=C(NCCN1CCOCC1)c1ccc2c(c1)C(=O)c1ccc(Nc3ccc(F)c(NC(=O)c4ccccc4)c3)cc1CC2 | 85% |
| CC(=O)C1=C(C)N(c2cccc(C(F)(F)F)c2)C(=O)N[C@H]1c1ccc(C#N)nc1 | 108% |
